# Assay results of several laboratories.
# Parts stem from different laboratories: compare values within a part only. Substitutions count along the parent as printed.

# Set 1 — technique: DHFR PCA, deep sequencing; sample: yeast; together with: (+)-ABA 0 µM; baseline: wild-type fitted maximum; direction: higher = stronger binding
# Target: ABI1, truncated, D143A, DHFR fusion (Arabidopsis thaliana)
# Setting: methotrexate growth selection, single substitutions
# Starting sequence: PYL1, truncated, DHFR fusion (Arabidopsis thaliana); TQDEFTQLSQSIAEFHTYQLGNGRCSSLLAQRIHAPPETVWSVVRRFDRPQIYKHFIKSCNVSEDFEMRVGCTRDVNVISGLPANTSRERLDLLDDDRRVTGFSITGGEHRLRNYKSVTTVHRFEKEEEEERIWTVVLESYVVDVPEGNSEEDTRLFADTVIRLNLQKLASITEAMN; partner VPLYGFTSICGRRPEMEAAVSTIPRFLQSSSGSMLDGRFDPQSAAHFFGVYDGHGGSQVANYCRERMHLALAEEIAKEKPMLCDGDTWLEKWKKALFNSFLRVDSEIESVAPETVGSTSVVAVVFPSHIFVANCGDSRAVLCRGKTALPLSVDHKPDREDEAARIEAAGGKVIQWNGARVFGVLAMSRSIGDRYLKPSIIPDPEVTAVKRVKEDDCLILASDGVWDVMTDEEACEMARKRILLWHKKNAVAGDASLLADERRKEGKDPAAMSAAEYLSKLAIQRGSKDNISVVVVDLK
Substitution,relative binding score [%]
N149F,1.92
L91N,1.15
S171M,24.9
R155V,3.45
T39D,7.7
G71M,2.12
R123S,46.3
M68V,8.97
R98H,-4.23
L166V,3.83
Q19N,29.5
V145N,-10.2
F124D,10.2

# Set 2 — target: CCNB3, cyclin fold, Cln2 fusion (human); technique: yeast growth competition, sequencing; sample: yeast; setting: weak parent motif; baseline: not given; direction: higher = stronger binding
# Starting sequence: GMNC docking peptide (human); KNAKRNLSSEFAN
Substitution,normalised enrichment score
F11D,0.361
S8Y,0.265
E10V,0.422
S8H,0.115
K4Y,0.0093
N6D,-0.0426
L7K,0.189
R5S,0.113
F11N,-0.271
K4S,0.00642
E10M,0.565
R5F,-0.0769

# Set 3 — technique: RNA Bind-n-Seq; form: RNA; sample: in vitro; tested at: 365 nM; baseline: no-protein control; direction: higher = stronger binding
# Target: RNA binding protein fox-1 homolog 2, RRM domain, GST-SBP tag (RBFOX2, Homo sapiens, UniProt O43251-10, residues 100-194)
# Setting: natural RNA segment, single round, ends assumed
# Shared flanks, not repeated: GGGAGUUCUACAGUCCGACGAUC … UGGAAUUCUCGGGUGCCAA
# Construct (chain): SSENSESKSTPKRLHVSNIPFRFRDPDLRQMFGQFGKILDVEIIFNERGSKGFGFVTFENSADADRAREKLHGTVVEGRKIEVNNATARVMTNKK
Sequence,RBNS enrichment (R)
UCGCGGUUGUCACCCGGGCUGGAGUGCAGUGGCGUGAUCUCGGCUCACUGCAACUUCCACCUCCUGGGUUCCAGCAGUUCUCCUGCCUCAGCCUCCCAAGUAGCUGAGAU,0.236
CAGUAGUGUCCAGCCAGAGCUGCGGCUCCAGCCACCCUUCCUAGGGUGGCAUUCAGGGCAGCACCCAGGGUAGGGAACUUGGGGGCAAGGGGAGGCAGGCUGGGUGUUCC,0.614
AGACCAGGCUGGGGCUGCUGCCCUCCCACACGAGGUACUGAUGGAUCCUGGUUCUAUUCUGGGUAUUUCAUCCUGCCUUCCAGAGCACCUUCUGAAGUUCACAUCGUUGG,0.244
UCUCCUCGGCUUCUUGCACUGAGCUGGCCUCACGUGUUGACUGAGGGAGCCCCUGAGCCCCAACCUUCCCCUGCCUCAGCCUUUGAUUGUCCAGGGUGAAGCUGUGGGAG,0.807
GAUGGUUGUCUUCAUAUAGAGUCACAUGGUUUCUCUUUUUAUGCAGAUAUUUAUAAUCUUCAUCCUAUAUCAGUAGGAAUAACUAUAAGGUGCACUACAAAAAGAUGUAU,0.374
UCCCUUGGCAAAUGGACACCAGGGGCUUCUCCCCUCAAAGCCAUACCCCGCCUCUGGGCGGGCAUGGGGGGUGGUGGGUGCCAGCCAGGGGCAUGGACAGAGCCUUUUUC,0.518
ACUAUAGGUAAUAACUCUUAGAGAAAUUAAUUUAAUAUUAGAAUUUCUAUUAUGAAUCAUGUGAAAGCAUGACAUUCGUUCACAAUAGCACUAUUUUAAAUAAAUUAUAA,1.62
AACUGUCUCCUACCUCUGCUCUUGGAGGAGAUGGGGACAGGGCUGGAGUCAAAACACUUGUAAUUUUGUAUCUUGAUGUCUUUGUUAAGACUGCUGAAGAAUUAUUUUUU,0.428

# Set 4 — technique: RNA Bind-n-Seq; form: RNA; sample: in vitro; tested at: not given; baseline: input RNA pool; direction: higher = stronger binding
# Target: RING finger protein unkempt homolog, zinc fingers 1-6, GST-SBP tag (UNK, Homo sapiens, UniProt Q9C0B0, residues 30-357)
# Setting: RNA with constant flanks, human and mouse sites, ends assumed
# Shared flanks, not repeated: GGGAGUUCUACAGUCCGACGAUC … CAACAGAGGAUUGAGCAUCA
# Target sequence (chain): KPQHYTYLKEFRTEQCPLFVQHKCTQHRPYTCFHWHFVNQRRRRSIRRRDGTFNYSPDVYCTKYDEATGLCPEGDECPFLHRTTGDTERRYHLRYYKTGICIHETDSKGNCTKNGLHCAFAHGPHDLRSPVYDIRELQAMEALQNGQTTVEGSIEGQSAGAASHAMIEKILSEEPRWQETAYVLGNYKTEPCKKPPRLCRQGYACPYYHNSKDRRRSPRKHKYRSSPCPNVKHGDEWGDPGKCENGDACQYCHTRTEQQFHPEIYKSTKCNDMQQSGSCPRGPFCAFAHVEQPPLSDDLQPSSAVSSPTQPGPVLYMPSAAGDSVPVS
Sequence,bound/input enrichment
CCACAGGCCGGUUUAAUGGCCAGUUUAAAACCUAUGGCAUCUGCGGGGCCAUUCGCAGGAUGGUGAGUUCUACCACCUGGUCUGCCUUGUACUGUUCAUGUGACAUCUGAGCUCUGAUGG,0.197 ratio
GUACUGCAGCAGCAGGGAAAACUGCAGGAAGCUCUGAUGCAUUAUAAGGAGGCUAUUCGAAUCAGUCCUACCUUUGCUGAUGCCUACUCUAAUAUGGGAAACACUCUAAAGGAGAUGCAG,0.183 ratio
UGGUUUGUGAAUUUUAUACAAUUGAAAGUCUUUUUUUCUUGCUUCUUUCUUCUCUUCUCAAGUUUCCCCCCUGUUUCUACUUUAUUGUUUGUCCUAACCAUUUCUACUACAGUUUUUUCC,1.73 ratio
UGCUACCAGACACUGACAGAAAUGCCUAUCAGGUGUGAGCUCUUUGACCAGAACCUGAAGCUAGCUCUGGAGGUGGCAGAGAAGGCUGGAACUUUUGGACCUGGGUCAUAGGCUGAACCU,0.148 ratio
CAGAAGCCUGUUGUGCACCCCUCGGCACCUGCCCCCCUCCCUAAGGACUACGCUUUCACCUUCUUCGAUCCCAAUGACCCGGCGUGCCAGGAGAUCCUGUUUGACCCUCAGACCACCAUC,0.386 ratio
UGUUUUGUUAUGCAUGACGUGUCUAUAACAAAUAUACACAUACGACAGGCAACAAGCUUGUUUUUGAUUUGCCAGACAUGCAUCAUUGGCUAUUGUUUGUUUGUUUUUUGUUUUUUUGUG,0.206 ratio
GAAAUGGCCACCACAGAAGAUGCUCAGGCUGCUGUGGAUUAUUAUACAACUACACCAGCAUUAGUGUUUGGCAAGCCAGUGAGAGUUCAUUUAUCCCAGAAGUAUAAGAGAAUAAAGAAA,0.59 ratio
AGAGCAAUGGCUGCAGCAGCAGCUUCUCACCUGAACCUGGAUGCCCUCCGGGAAGUGCUAGAAUGCCCCAUCUGCAUGGAGUCCUUCACAGAAGAGCAGCUGCGUCCCAAGCUUCUGCAC,0.067 ratio

# Set 5 — technique: protein binding microarray; form: double-stranded DNA, one strand shown; sample: in vitro; tested at: not given; baseline: not given; direction: higher = stronger binding
# Target: Histone acetyltransferase KAT6A, both winged helices, GST fusion (KAT6A, Homo sapiens, UniProt Q92794, residues 1-181)
# Setting: 8-mer, flanks averaged, mean of 2 arrays, mostly near background
# Target sequence (chain): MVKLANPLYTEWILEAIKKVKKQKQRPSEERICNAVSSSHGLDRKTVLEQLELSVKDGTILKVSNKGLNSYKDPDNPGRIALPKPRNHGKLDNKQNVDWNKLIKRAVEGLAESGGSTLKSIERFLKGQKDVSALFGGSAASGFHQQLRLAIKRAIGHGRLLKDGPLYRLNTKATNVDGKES
Sequence,E-score
CGGAAGCC,0.22
CGTGCTAA,0.0203
CTAATGAA,-0.0904
CGGCCCAC,0.109
CACGTGGC,-0.0152
GGGACACA,-0.209
CCCTTCAC,-0.145
ATGTTGCA,-0.172
CCGTAGGC,0.227
AAAAGGCC,0.0942
GGACACTA,-0.133
ATACTTAG,-0.125
ACATTCCA,-0.0411
CTTCTTTC,-0.247
TCCAGAGA,-0.169
CAACTACA,-0.143
CACGGATG,0.222
CCATATCG,0.148
CGGAAACA,0.3
CGGCTAAA,0.27

# Single results of other studies
Molecule,target,assay,test system,conditions,scale,quantity,value
"PhoQ, residues 284 288 289 292 302 303 SQSLSM","PhoP, residues 12 14 15 18 19 LHSVQ (Escherichia coli, UniProt P23836)","Sort-seq, item: YFP reporter",E. coli,"PhoQ-PhoP variant library, together with: 10 µM Mg2+","baseline: high Mg2+ state, higher = stronger signaling",fold induction,5.51

# Repeated from above (set 2):
Substitution,normalised enrichment score
S8H,0.115
K4Y,0.0093
N6D,-0.0426
L7K,0.189
R5S,0.113
F11N,-0.271
K4S,0.00642
E10M,0.565
